Results pooled from the literature.
Lines come from different studies, so protocols differ.

Compound | test | test system | conditions | endpoint | result
O=C1Nc2cc3[nH]nc(-c4ccncc4)c3cc2CN1Cc1ccccc1 | CTCAE v4.03 | advanced solid tumour patients | intravenous, 0.9 mg/kg, schedules 1/2 | patients with ≥1 TEAE | 100%
C[C@@H]1OC(=O)NN=C1c1ccc(-c2ccc(F)cc2)c(C(F)(F)F)c1 | – | patients, phase I trial | oral, dose not given, all arms, any grade TEAE | patients with platelet count decreased | 60%
C=CCNc1c(O)cc2c(O)c1C[C@@H](C)C[C@H](OC)[C@H](O)[C@@H](C)/C=C(\C)[C@H](OC(N)=O)[C@@H](OC)/C=C\C=C(/C)C(=O)N2 | – | unresectable or metastatic sarcoma | intravenous, 225 mg/m^2, grade 3-4 lab change | patients with AST increase | 33%
Nc1nc2cc(-c3ccc4ncc(C(=O)N5CCOCC5)n4c3)ccc2o1 | refers to: Cough | advanced solid tumour patients | dose not given | patients with adverse event | 0%
CN1CC[C@@H](c2c(O)cc(O)c3c(=O)cc(-c4ccc(C(F)(F)F)cc4Cl)oc23)[C@@H]1CO | refers to: Hypotension | B-cell malignancies | oral, 150 mg, intermittent dosing | patients with adverse event | 0%
CC(=O)c1c(C)c2cnc(Nc3ccc(C4CCN(CCS(C)(=O)=O)CC4)cn3)nc2n(C2CCCC2)c1=O | – | HR+/HER2- advanced breast cancer patients | oral, dose not given | patients with any TEAE | 100%
N[C@@H]1c2ccccc2OC12CCN(c1cnc3c(N4CCCc5ncccc54)n[nH]c3n1)CC2 | – | advanced solid tumour patients | oral, 10 mg once daily | patients with fatal TEAE | 0%
CCN(CCO)CCCC(C)Nc1ccnc2cc(Cl)ccc12 (centres unmarked) | refers to: Pruritus grade 1 | newly diagnosed glioblastoma patients | oral, 200 mg/dose, with radiotherapy and temozolomide | patients with adverse event | 33%
Cc1cc(OCCOCCC(F)(F)P(=O)(O)O)ccc1CCc1cnc2c(N)nc3cc(CCC(=O)O)ccc3c2c1 | refers to: anemia | adults with advanced solid tumours | dose not given, all groups pooled, all grades | patients with non-serious AE | 24.4%
CO[C@H]1C[C@@H]2CC[C@@H](C)[C@@](O)(O2)C(=O)C(=O)N2CCCC[C@H]2C(=O)O[C@H]([C@H](C)C[C@@H]2CC[C@@H](OC(=O)NCCOCCOCCOCCOCCOCCOCCOCCOCCC(=O)N3CCc4cc(Cn5nc(-c6ccc7oc(N)nc7c6)c6c(N)ncnc65)ccc4C3)[C@H](OC)C2)C[C@@H](O)[C@H](C)/C=C(\C)[C@@H](O)[C@@H](OC)C(=O)[C@H](C)C[C@H](C)/C=C/C=C/C=C/1C | refers to: treatment-related AEs | patients with advanced solid tumours | intravenous, 1.6 mg/3 mg, grade ≥3, weekly | patients with AE | 0%
COc1c(OCCCN2CCOCC2)ccc2c1N=C(NC(=O)c1cnc(N)nc1)N1CCN=C21 | refers to: decreased platelet count | patients with advanced malignancies | intravenous, dose not given, any grade, all cohorts, added: gemcitabine | patients with adverse event | 80%

Repeated from above:
Compound | test | test system | conditions | endpoint | result
O=C1Nc2cc3[nH]nc(-c4ccncc4)c3cc2CN1Cc1ccccc1 | CTCAE v4.03 | advanced solid tumour patients | intravenous, 0.9 mg/kg, schedules 1/2 | patients with ≥1 TEAE | 100%
